Assay results of several laboratories.
A part holds a random share of what one study measured. Substitutions count along the parent as printed.

Block 1 — target: CCNB1, cyclin fold, Cln2 fusion (human); technique: yeast growth competition, sequencing; medium: yeast; setting: weak parent motif; reference: not given; direction: higher = stronger binding
Parent: CDKN1A docking peptide (human); SKACRRLFGPVDS
Variant | normalised enrichment score
F8T | -0.412
V11W | 0.293
K2H | 0.31
A3I | 0.903
V11K | 0.14
V11G | 0.061
D12S | 0.332
F8Y | -0.159
D12A | 0.233
L7F | 0.258
C4T | 0.407
K2R | -0.168
C4H | 0.783
L7R | 0.363
D12E | -0.0508

Block 2 — technique: protein-binding microarray; form: double-stranded DNA, one strand shown; medium: in vitro; tested at: 2200 nM top; setting: 60-bp whole probe; together with: salmon DNA 0.4 mg/ml; reference: random background probes; direction: higher = stronger binding; shared flanks, not repeated: GCCTAGCAC … GTCTTGATTCGCTTGACGCTGCTG
Target: Interferon regulatory factor 7, full length, phosphomimetic (IRF7, Homo sapiens, UniProt Q92985, residues 1-503, S471D/S472D/S475D/S476D/S477D/S483D/S484D/S487D)
Construct (chain): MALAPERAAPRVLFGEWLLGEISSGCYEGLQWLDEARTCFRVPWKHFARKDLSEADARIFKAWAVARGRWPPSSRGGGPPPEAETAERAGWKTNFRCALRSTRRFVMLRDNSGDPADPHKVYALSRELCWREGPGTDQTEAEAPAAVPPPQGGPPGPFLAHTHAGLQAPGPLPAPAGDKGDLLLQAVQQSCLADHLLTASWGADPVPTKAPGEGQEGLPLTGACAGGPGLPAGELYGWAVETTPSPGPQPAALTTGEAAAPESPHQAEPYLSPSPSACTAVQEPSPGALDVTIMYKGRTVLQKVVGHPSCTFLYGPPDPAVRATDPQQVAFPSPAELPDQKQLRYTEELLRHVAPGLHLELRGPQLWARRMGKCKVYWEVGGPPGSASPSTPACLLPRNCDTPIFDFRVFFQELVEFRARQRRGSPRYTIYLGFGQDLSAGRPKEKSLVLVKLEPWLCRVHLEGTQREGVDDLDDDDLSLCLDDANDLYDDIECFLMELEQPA
Oligonucleotide | fitted relative affinity [z-score]
GACGATCTCCGACTGGAGACGTGCTAG | -0.19
TAAGGTTTCCTTCTCCTTTAGTGCTAG | 2.31
TTAGGTTCCGGTTTCGGTGAGTGCTAG | 5.23
TCATTTCTCTTTCATTGCACTGTGCTA | 3.78
GACGGTTTCCTACCGCTGACGTGCTAG | 1.41
GGCGATTTCAGTTCCGAGACGTGCTAG | 1.57
TTAGGTTTCGGGTATCGGCTAGTGCTA | 6.05
TACGGTTTCGACTATCGGGACGTGCTA | 3.92
CTAGGTTTCCTTTTCCTTTAGTGCTAG | 6.97
TTAGTTCTCCTTTTCCTTTAGTGCTAG | 3.12
TTAGGTCTGGGTATCGGTTAGTGCTAG | 0.342
GACGGTATCGGGACTGGGGAGGTGCTA | -0.327
TTAGATCTCAGTCTCTATTAGTGCTAG | 0.266
TTAGATTTCGGATATCGATTAGTGCTA | 1.41
GACGAACTGCTTTTCCTGACGTGCTAG | 0.832
GACGATTTCTGGTTTCGAGACGTGCTA | 4.33

Block 3 — technique: RNA Bind-n-Seq; form: RNA; medium: in vitro; tested at: 1 µM; setting: whole 134-nt RNA, ends assumed; together with: 150 mM KCl; reference: input library; direction: higher = stronger binding
Target: Ras GTPase-activating protein-binding protein 1, RRM domain (G3BP1, Homo sapiens, UniProt Q13283)
UniProt Q13283, sequence (whole entry, looked up): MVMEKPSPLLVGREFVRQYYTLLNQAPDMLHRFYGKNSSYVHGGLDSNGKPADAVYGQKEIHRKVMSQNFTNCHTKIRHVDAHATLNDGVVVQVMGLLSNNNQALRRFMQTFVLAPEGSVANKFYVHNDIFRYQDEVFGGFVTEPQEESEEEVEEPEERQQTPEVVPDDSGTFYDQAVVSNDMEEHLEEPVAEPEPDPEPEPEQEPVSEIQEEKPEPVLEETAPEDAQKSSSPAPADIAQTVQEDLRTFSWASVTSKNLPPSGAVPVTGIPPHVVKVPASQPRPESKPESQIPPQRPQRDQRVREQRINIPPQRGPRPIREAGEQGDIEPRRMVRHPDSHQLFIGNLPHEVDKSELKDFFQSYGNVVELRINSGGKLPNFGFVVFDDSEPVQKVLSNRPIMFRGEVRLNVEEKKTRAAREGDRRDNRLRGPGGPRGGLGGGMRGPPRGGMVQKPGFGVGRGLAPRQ
Shared flanks, not repeated: GGGAGUUCUACAGUCCGACGAUC … UGGAAUUCUCGGGUGUCAAGG
Oligonucleotide | log2 enrichment
CUCAAGUCCUGUGCUACACAUCGUAUGUACCGAAUCGGGUGGGAAAGGGAGGGAAAGUAUUAUGUUACGCCGUUCGGAUCUGCACUUCCA | 0.625
GUCCUGUGCUACACAUCGUAUGUACCGAAUCGGCCCCCCGGGCCCCCCGGGCCCCCCGGAAAGUAUUAUGUUACGCCGUUCGGAUCUGCA | -0.457
CACAGACAACACGCACCCACACAGACACAGAGGGAAGGGGUUGGGAUGGGGACAGGGUGCACAGCAUGGCGGGGUAGGACCCCAGCCCCU | 0.00186
ACCAUGCAGGUUGGCAUCUUUGGGAAGUGGGGCAAGGGGGGGAUAGGGAGGGGGGUAACACUUUGGGAACAGGUGGUCCCAGGUCGUUUC | -0.493
ACCAUGCAGGUGGGCAUCUUUGGGAAGUGGGGCAAGGGGGGGAUAGGGAGGGGGGUAAAACUUUGGGAACAGGUGGUCCCAGGUCGUUUC | -0.376
GUCCUGUGCUACACAUCGUAUGUACCGAAUCGGGAAAAAAAGGGUGGGUUUUUUUGGGAAAGUAUUAUGUUACGCCGUUCGGAUCUGCAC | 0.361

Block 4 — technique: universal PBM; form: double-stranded DNA, one strand shown; medium: in vitro; tested at: not given; direction: higher = stronger binding
Target: Sal-like protein 4, full length isoform B (SALL4, Homo sapiens, UniProt Q9UJQ4-2, residues 1-616)
Setting: 8-mer, flanks averaged, mean of replicates
Oligonucleotide | E-score
GACCTAGC | -0.142
CAGTCGGA | -0.17
ACTGTTCG | 0.14
TAGGAAAA | 0.219
AACACCCA | -0.132
ACAATCTG | 0.0997
GACCACGC | -0.25
ACACGATC | -0.0696
ATAGAAAG | 0.169
ACAACGTC | -0.0869
CCGCGTTA | -0.144
AAACCTAG | -0.0801
ATGTTAAT | 0.291
ATACTTCG | 0.171
GCTCAAAA | -0.00514
ATCGCGTA | 0.0648
GACATTCC | -0.00758
CACGCCCA | -0.252
AGAATTTG | 0.115

Block 5 — technique: RNA Bind-n-Seq; form: RNA; medium: in vitro; tested at: not given; reference: input RNA pool; direction: higher = stronger binding
Target: RING finger protein unkempt homolog, zinc fingers 1-6, GST-SBP tag (UNK, Homo sapiens, UniProt Q9C0B0, residues 30-357)
UniProt Q9C0B0, sequence (30-357, looked up): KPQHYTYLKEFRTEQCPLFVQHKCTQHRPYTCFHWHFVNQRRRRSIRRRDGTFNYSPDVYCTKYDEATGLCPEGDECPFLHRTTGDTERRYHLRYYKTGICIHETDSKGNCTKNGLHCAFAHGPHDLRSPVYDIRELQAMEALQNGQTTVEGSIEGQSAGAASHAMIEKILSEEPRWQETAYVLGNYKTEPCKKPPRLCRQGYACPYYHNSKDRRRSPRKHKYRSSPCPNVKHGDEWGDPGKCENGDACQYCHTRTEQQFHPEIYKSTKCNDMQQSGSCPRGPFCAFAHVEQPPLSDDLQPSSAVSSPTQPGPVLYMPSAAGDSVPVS
Setting: RNA with constant flanks, human and mouse sites, ends assumed
Shared flanks, not repeated: GGGAGUUCUACAGUCCGACGAUC … CAACAGAGGAUUGAGCAUCA
Oligonucleotide | bound/input enrichment [ratio]
GUAUGCCAGGGAACACACAUUCUCUUUCGAGAAUUCAGCUUCGUCCAAGCCACCCCCCACAAUAGGGUAUCAUUUUUACGGGCCUUCUGGAGAUGCUUCCGAACUGUGGGCAAAAAUGGC | 1.32
CUGGUGGAGAUCCCUACCCCUCAGGAUUACUGGGGCCCGGUGUUUGCCAUCUGCAUCUUCCUCUUCUCCUUCAUCGUCCCCGUGCUCGUCAUCUCUGUCUGCUACAGCCUCAUGAUCCGG | 0.319
ACUGGCCGUUACGAUGAGGGAGACAGUCGGGGGGGGGGGGCAGUCACCAGCUGAGCUGUACAGCCACAGCCACGGCCGCGGCAUGGCUCGGAGCUUGUUUGACACUGUGCUCAGUCUGUU | 1.92
CGAUUUUUUUAUAAAGAGAAAGAAUCUGUGAACGCCAAAGUUCUUAAGGAUGUUAAGUUUCCUCUUAUGUUGGAUGUGUAUGAACUCUGCACACCAGAACUUCAAGAGAAAAUGGUCUCU | 0.225
AACAGUGGAGAAGAGUUAGAAUCCUACAAAGGUCACUUUGGUCCCAUUCACUGUGUGAGAUUCAGUCCUGAUGGGGAACUCUAUGCCAGCGGUUCUGAAGAUGGGACAUUGAGAUUGUGG | 0.19
GAAGCAAUAAAAAAGAAGCUUGGAGAAUUAACAGGGACAGUGAAGGAGAGUCUUGAUGAAGUCAGUAAGAGUGACCUUGGCCGGAAGAUCAAGGAGGGGGUAGAAGAGGCCGCCAGGACA | 0.565
GUCAUCAAGUUUGAUAAGGAGGAAGAGGCCGUCGCCAUCGCAAAUGCAGCUGAGGUUGGAUUGGCAGGUUACUUUUACUCUCAAGACCCGGCCCAGAUCUGGAGAGUGGCGGAGCAGCUG | 0.391

For quick reference, copied from above (block 4):
Oligonucleotide | E-score
TAGGAAAA | 0.219
AACACCCA | -0.132
ACAATCTG | 0.0997
GACCACGC | -0.25
ACACGATC | -0.0696
ATAGAAAG | 0.169
ACAACGTC | -0.0869
CCGCGTTA | -0.144
AAACCTAG | -0.0801
ATGTTAAT | 0.291
